Measurements of several laboratories.
Protocols differ between the studies behind these lines. Values joined by “and” are separate records of one study, mostly repeats; a detail may differ.
CDK6: Cyclin-dependent kinase 6 (CDK6, Homo sapiens, UniProt Q00534)
P4HB: Protein disulfide-isomerase (P4HB, Homo sapiens, UniProt P07237)
Chain of UniProt P07237 (whole entry, looked up): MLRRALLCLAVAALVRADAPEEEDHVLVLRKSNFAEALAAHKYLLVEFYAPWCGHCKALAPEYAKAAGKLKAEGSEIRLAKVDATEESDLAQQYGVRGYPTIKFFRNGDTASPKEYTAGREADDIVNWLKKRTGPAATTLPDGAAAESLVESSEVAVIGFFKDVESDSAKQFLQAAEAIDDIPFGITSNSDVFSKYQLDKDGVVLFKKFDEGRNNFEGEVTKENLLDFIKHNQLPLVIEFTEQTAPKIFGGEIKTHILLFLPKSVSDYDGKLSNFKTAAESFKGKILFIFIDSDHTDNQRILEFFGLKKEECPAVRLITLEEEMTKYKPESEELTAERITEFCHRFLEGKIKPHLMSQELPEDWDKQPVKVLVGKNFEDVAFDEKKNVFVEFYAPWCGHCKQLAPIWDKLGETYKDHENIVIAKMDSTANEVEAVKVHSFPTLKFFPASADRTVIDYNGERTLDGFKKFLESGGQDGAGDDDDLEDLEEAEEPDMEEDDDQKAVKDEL
GBA1 R534H: Lysosomal acid glucosylceramidase (GBA1, Homo sapiens, UniProt P04062, R534H)
Chain of UniProt P04062 (whole entry, unmodified, looked up): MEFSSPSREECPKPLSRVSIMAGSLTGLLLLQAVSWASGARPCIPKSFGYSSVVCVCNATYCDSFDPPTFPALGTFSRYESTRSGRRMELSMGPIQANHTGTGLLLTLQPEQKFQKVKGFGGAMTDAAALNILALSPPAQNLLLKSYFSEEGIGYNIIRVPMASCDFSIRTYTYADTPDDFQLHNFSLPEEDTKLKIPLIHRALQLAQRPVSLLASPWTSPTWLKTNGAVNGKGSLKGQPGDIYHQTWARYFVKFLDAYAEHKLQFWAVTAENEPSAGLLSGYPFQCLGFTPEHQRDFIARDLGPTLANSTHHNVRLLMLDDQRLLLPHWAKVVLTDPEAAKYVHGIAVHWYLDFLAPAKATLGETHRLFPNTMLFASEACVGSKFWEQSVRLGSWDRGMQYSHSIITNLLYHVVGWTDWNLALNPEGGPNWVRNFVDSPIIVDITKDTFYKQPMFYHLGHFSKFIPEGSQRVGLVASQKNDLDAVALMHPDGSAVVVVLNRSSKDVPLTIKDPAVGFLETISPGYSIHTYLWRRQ
Gria1/Gria2: Glutamate receptor AMPA 1/2 (Gria1/Gria2, Rattus norvegicus, UniProt P19490+P19491)
Chain of UniProt P19491 (whole entry, looked up): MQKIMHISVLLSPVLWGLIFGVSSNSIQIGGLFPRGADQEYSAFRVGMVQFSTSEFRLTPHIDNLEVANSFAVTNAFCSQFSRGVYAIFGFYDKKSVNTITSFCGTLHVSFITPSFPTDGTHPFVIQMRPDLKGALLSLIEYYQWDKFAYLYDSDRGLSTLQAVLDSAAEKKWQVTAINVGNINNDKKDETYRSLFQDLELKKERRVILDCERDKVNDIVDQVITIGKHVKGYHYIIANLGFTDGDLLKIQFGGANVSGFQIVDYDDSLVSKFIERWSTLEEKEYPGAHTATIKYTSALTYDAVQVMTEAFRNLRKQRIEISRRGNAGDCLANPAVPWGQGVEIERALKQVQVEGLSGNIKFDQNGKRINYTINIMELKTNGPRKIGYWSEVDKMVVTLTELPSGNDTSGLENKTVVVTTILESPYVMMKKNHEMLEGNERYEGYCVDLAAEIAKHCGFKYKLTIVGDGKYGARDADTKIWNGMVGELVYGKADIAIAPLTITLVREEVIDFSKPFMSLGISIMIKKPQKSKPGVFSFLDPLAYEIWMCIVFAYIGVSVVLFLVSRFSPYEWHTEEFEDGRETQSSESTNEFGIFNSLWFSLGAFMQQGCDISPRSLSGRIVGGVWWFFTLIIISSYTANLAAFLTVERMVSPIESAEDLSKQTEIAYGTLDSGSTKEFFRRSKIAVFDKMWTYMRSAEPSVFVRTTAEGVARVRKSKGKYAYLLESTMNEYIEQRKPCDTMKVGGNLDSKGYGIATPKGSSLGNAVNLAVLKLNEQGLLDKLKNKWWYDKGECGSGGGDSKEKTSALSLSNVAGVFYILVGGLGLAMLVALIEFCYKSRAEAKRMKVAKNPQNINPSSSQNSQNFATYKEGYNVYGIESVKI
Chain of UniProt P19490 (whole entry, looked up): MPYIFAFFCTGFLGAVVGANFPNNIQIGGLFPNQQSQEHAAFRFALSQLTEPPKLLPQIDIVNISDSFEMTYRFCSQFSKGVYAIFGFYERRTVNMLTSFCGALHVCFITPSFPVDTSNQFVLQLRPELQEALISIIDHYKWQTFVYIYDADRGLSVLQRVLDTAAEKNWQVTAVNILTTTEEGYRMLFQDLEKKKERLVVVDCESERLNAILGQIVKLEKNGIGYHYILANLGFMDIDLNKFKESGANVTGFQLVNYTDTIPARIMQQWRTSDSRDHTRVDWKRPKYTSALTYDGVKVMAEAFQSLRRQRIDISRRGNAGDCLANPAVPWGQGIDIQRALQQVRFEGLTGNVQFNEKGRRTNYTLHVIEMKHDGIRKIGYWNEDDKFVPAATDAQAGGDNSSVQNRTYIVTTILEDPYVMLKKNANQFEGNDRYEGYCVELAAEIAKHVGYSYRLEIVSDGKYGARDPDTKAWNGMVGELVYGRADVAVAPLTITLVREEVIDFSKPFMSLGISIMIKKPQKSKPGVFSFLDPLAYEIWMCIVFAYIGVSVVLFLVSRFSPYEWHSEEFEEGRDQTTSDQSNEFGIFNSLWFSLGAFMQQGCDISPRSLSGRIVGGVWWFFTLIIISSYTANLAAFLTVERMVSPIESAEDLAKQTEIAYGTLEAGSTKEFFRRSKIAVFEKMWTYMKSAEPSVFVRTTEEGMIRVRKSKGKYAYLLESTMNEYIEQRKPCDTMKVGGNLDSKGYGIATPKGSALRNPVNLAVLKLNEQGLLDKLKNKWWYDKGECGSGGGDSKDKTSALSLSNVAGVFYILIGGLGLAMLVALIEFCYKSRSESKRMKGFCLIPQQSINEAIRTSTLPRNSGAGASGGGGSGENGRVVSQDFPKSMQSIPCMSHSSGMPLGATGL
HDAC9: Histone deacetylase 9 (HDAC9, Homo sapiens, UniProt Q9UKV0)
Chain of UniProt Q9UKV0 (whole entry, looked up): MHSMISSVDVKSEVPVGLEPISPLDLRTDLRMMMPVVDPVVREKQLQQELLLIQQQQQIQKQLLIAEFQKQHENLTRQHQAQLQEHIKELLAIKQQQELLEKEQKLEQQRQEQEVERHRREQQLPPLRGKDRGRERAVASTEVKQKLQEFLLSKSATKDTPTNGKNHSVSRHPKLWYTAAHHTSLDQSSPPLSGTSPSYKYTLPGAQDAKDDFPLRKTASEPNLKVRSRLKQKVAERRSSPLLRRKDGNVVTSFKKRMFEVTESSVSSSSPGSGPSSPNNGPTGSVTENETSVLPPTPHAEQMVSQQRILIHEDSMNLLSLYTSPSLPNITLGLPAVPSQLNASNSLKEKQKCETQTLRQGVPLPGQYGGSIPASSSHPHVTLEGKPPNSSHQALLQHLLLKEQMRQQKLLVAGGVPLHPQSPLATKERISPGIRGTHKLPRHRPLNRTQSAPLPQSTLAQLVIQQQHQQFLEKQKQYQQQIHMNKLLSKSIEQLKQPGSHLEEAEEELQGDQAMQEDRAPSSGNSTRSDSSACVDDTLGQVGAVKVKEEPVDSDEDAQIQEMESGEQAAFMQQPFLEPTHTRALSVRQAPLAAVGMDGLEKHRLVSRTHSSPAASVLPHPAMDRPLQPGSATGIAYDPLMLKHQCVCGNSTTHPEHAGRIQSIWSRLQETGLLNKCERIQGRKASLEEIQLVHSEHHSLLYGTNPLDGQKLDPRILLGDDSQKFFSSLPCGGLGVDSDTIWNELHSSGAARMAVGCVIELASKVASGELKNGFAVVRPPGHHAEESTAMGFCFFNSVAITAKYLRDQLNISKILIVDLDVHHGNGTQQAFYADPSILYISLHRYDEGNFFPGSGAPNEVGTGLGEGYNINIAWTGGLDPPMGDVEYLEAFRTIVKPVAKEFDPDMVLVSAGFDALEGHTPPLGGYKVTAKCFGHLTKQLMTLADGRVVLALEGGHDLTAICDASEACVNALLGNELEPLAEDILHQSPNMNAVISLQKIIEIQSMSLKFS
HDAC6: Protein deacetylase HDAC6 (HDAC6, Homo sapiens, UniProt Q9UBN7)
Chain of UniProt Q9UBN7 (whole entry, looked up): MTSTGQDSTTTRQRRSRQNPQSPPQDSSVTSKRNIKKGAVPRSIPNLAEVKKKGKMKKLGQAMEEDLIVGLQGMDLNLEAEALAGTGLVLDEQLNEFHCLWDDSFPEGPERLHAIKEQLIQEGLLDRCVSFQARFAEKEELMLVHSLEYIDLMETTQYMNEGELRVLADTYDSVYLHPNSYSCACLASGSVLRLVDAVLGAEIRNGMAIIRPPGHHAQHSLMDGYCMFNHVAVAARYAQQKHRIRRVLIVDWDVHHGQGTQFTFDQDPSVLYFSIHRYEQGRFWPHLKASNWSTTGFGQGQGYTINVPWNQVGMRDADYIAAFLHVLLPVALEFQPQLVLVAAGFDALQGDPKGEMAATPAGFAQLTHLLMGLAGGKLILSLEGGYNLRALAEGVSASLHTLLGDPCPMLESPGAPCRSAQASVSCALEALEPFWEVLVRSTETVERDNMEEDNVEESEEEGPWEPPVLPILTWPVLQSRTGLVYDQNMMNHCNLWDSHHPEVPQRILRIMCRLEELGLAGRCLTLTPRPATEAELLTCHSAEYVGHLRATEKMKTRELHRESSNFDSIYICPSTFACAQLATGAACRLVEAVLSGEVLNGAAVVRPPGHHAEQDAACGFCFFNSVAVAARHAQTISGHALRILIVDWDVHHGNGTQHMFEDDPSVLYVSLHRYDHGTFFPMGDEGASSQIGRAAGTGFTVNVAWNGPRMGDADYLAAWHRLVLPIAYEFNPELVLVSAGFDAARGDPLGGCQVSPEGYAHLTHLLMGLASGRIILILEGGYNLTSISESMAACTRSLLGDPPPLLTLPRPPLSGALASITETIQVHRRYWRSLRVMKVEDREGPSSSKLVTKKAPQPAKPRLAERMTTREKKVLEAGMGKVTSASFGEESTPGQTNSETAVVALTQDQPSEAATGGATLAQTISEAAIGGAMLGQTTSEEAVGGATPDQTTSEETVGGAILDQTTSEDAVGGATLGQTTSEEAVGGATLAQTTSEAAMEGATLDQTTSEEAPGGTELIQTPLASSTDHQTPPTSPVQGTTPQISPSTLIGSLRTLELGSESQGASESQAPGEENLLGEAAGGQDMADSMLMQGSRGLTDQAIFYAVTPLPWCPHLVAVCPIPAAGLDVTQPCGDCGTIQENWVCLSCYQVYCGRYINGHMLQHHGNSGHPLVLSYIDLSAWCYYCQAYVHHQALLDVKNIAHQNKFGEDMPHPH

Structure (SMILES)	target	test	test system	setting	IC50
Cc1cc(NC2CCN(C)CC2)ccc1-c1cc2c(N3CCC[C@H](C(=O)NCc4ccc(OC(F)(F)F)cc4)C3)ncnc2[nH]1	CDK6	enzyme activity, inhibitor, mobility shift	–	–	> 8 µM
CC(C)(C)OC(=O)N1CCN(c2ccc3c(O)c(C(=O)NCc4ccc(C#N)nc4)ncc3n2)CC1	Lysine-specific demethylase 6A (Homo sapiens, UniProt O15550)	enzyme activity, inhibitor, AlphaScreen	–	–	> 10 µM
COC(=O)c1ccc(/C=C/C(=O)c2ccc(N3CCCCC3)cc2)cc1	P4HB	enzyme activity, inhibitor	–	–	> 100 µM
OC[C@@H]1[C@@H](O)[C@H](O)[C@@H](O)CN1CCCCCOCCc1ccsc1	GBA1 R534H	inhibitor, 4MU-β-D-glucopyranoside	–	added: 4MU-β-D-glucopyranoside	6 µM
O=C(/C=C/c1cccc(Br)c1)c1ccc(O)c(CCCl)c1	P4HB	enzyme activity, inhibitor	–	–	32 µM
COC(=O)c1cc(Br)cc(C#Cc2ccc(NC(=O)c3cccc4c3NC(=O)C43CC(NC(=O)OC(C)(C)C)C(=O)O3)cc2)c1 (stereo not shown)	PHGDH (Homo sapiens, UniProt O43175)	enzyme activity, inhibitor	–	–	2.5 µM
O=C(O)Cc1cc2c(cc1C(=O)c1ccccc1Br)OCO2	Gria1/Gria2	ion current, antagonist, patch clamp	–	–	4.57 µM
CC[C@H](C)C(=O)O[C@H]1C[C@@H](C)C=C2C=C[C@H](C)[C@H](CC[C@@H]3CC=CC(=O)O3)[C@H]21	CFTR (Homo sapiens, UniProt P13569)	apical chloride current, inhibitor	T84, basolaterally permeabilized	added: genistein 20 µM	4.35 µM
OC[C@@H]1[C@@H](O)[C@H](O)[C@@H](O)CN1CCCCCOCc1ccccc1	GBA1 R534H	inhibitor, 4MU-β-D-glucopyranoside	–	added: 4MU-β-D-glucopyranoside	0.3 µM
COc1cc(/C=C/C(=O)c2ccc(F)cc2F)cc(Cl)c1O	P4HB	enzyme activity, inhibitor	–	–	6.52 µM
COC1CCC(C[C@H](NC(=O)[C@H](CC(C)C)NC(=O)[C@H](Cc2ccc(CN)cc2)NC(=O)[C@H](Cc2ccccc2)N=[N+]=[N-])C(=O)[C@@]2(C)CO2)CC1 (stereo partly shown)	PSMB8 (Homo sapiens, UniProt P28062)	enzyme activity, inhibitor	–	lysate	> 10 µM
CCOc1cc(CN2CC3(CC(N4CCC(C(=O)O)CC4)=NO3)C2)cc(OCC)c1-c1ccc(F)cc1	SSTR5 (Homo sapiens, UniProt P35346, N100V)	cAMP level, agonist, GloSensor	AD293	N100V mutant, added: CST17 EC80 and forskolin	0.525 µM
OC[C@H]1[C@@H](O)[C@H](O)[C@@H](O)CN1CCCCCOCC1CCCCC1	GBA1 R534H	inhibitor, 4MU-β-D-glucopyranoside	–	added: 4MU-β-D-glucopyranoside	60 µM
COc1ccc(C(=O)/C=C/c2ccc(Br)cc2F)c(OC)c1	P4HB	enzyme activity, inhibitor	–	–	> 100 µM
COCCN(C)CC(=O)NC(Cc1ccc(-c2ccccc2)cc1)B(O)O (stereo not shown)	20S proteasome, beta1 subunit (Plasmodium falciparum, UniProt Q8I0U7+Q8I6T3)	β1 activity, inhibitor	–	added: Ac-nLPnLD-AMC	> 10 µM
OC[C@H]1[C@@H](O)[C@H](O)[C@@H](O)CN1CCCCCOCC(COCCCCCN1C[C@H](O)[C@@H](O)[C@H](O)[C@@H]1CO)C12CC3CC(CC(C3)C1)C2 (stereo partly shown)	GBA1 R534H	inhibitor, 4MU-β-D-glucopyranoside	–	added: 4MU-β-D-glucopyranoside	5 µM
O=C(O)Cc1cc2c(cc1C(=O)c1ccccc1Cl)OCO2	Gria1/Gria2	ion current, antagonist, patch clamp	–	–	4.37 µM
CCCCCCN(O)C(=O)CCCCC[C@@H]1NC(=O)[C@H]([C@@H](C)CC)NC(=O)[C@H](Cc2ccccc2C(F)(F)F)NC(=O)CCSCc2cccc(n2)CSCCCNC1=O	HDAC9	enzyme activity, inhibitor, fluorogenic	–	–	> 30 µM
COc1ccc(CNC(=O)c2cccc(CNc3ccncn3)c2)cc1OC	WDR5 (Homo sapiens, UniProt P61964)	–	–	–	10.7 µM and ≤ 20 µM
COC(=O)Cc1cc2c(cc1C(=O)c1cccc(I)c1)OCO2	Gria1/Gria2	ion current, antagonist, patch clamp	–	–	5.75 µM
CC(C)=CCC/C(C)=C/CC/C(C)=C/COCCCCCN1C[C@H](O)[C@@H](O)[C@H](O)[C@@H]1CO	GBA1 R534H	inhibitor, 4MU-β-D-glucopyranoside	–	added: 4MU-β-D-glucopyranoside	50 µM
C=C(NC(=O)c1csc(-c2nc3c(cc2O)-c2nc(cs2)C(=O)NC(C(C)O)C(=O)NC(=C(C)OC)c2nc(cs2)C(=O)NC2c4nc(cs4)C(=O)NC(COC(=O)c4c5c6c(cccc6n4O)COC(=O)C(OC4CC(C)(O)C(N(C)C)C(C)O4)C2OC5)c2nc-3cs2)n1)C(N)=O (stereo not shown)	Cytochrome P450 2E1 (CYP2E1, Homo sapiens, UniProt P05181)	enzyme activity, inhibitor	human, liver microsomes	pH 7.4	> 50 µM
CC(=O)OC1OCC2C=C(C3(C)CCCCC3)CCC21 (single isomer, unassigned; (-))	PPIF (Homo sapiens, UniProt P30405)	enzyme activity, inhibitor	–	–	< 0.5 µM
Cc1cc(C)nc(NC(=S)N2CCN(c3ccc(C(F)(F)F)cn3)CC2)c1	Glycerol-3-phosphate dehydrogenase 1-like protein (GPD1L, Homo sapiens, UniProt Q8N335)	enzyme activity	–	counterscreen	> 100 µM
COc1ccc(C[C@H](N)C(=O)N[C@H]2[C@@H](O)[C@H](n3cnc4c(N(C)C)ncnc43)O[C@@H]2CCl)cc1	Puromycin-sensitive aminopeptidase (Homo sapiens, UniProt P55786)	enzyme activity, inhibitor, fluorescence	–	–	3.9 µM

Structure (SMILES)	target	test	test system	setting	IC50
CCn1nc(Cl)c2c1-c1cnc(N)c(c1)O[C@H](C)c1cc(F)ccc1-c1nn(C)cc1C2	PLK4 (Homo sapiens, UniProt O00444)	enzyme activity, inhibitor, radiometric	–	–	0.565 µM
O=C(CCc1ccc(CNC(C(=O)O)C2CCCCC2)cn1)NO (stereo not shown)	HDAC9	enzyme activity, inhibitor	–	–	> 10 µM
OC[C@@H]1[C@@H](O)[C@H](O)[C@@H](O)CN1CCCCCOCc1ccccc1-c1ccccc1	GBA1 R534H	inhibitor, 4MU-β-D-glucopyranoside	–	added: 4MU-β-D-glucopyranoside	1.25 µM
O=c1c(-c2cnn(-c3ccc(Cl)cc3)c2)c(C(F)(F)F)oc2c(O)c(O)ccc12	Cullin-1, C-terminal domain with ROC1 (Homo sapiens, UniProt Q13616)	inhibitor, FRET	–	added: ROC1-CUL1 CTD	5.93 µM
O=C(O)Cc1cc2c(cc1C(=O)c1cccc(Br)c1)OCO2	Gria1/Gria2	ion current, antagonist, patch clamp	–	–	4.47 µM
O=C(NO)c1cc(F)cc(OS(=O)(=O)Oc2ccc3ccccc3c2)c1	HDAC6	enzyme activity, inhibitor, fluorescence	–	–	0.119 µM
Cc1nc2c(F)cc(-c3nc(Nc4ccc(CNC(=O)CCCCCCC(=O)NO)cc4)ncc3F)cc2n1C(C)C	HDAC10 (Homo sapiens, UniProt Q969S8)	enzyme activity, inhibitor	–	–	0.073 µM
Cc1cnc(Nc2ccc3c(c2)CCN(C(=O)/C=C/C(=O)C(C)C)C3)nc1-c1cnn(C(C)C)c1	JAK3 (Homo sapiens, UniProt P52333)	enzyme activity, inhibitor, ADP detection	–	–	> 0.03 µM
OCc1cccc(Nc2ncc(Cl)c(Nc3ccccc3-c3nccs3)n2)c1	IRAK4 (Homo sapiens, UniProt Q9NWZ3)	enzyme activity, inhibitor, radiometric	–	–	0.00376 µM
O=S1(=O)O[C@@H]2[C@H](CO)[C@@H](O)[C@H](O)[C@@H](O)[C@@H]2O1	bglA (Thermotoga maritima, UniProt Q08638)	enzyme activity, inhibitor	–	pH 6.8, with preincubation	> 100 µM
CCc1nnc(Nc2cnc([C@@H]3CCCN(C(=O)CCc4cccnc4)C3)cn2)s1	CDK6	enzyme activity, inhibitor, ADP detection	–	–	0.498 µM
CCOc1cc(/C=C/C(=O)c2ccc(Cl)cc2)ccc1O	P4HB	enzyme activity, inhibitor	–	–	88 µM
CNC(=O)N1CCN(c2ccc(NC(=O)c3nc(N)sc3-c3ccccc3)cc2C(F)(F)F)CC1	DDR1 (Homo sapiens, UniProt Q08345)	ligand displacement	–	–	6.7 µM
Cc1nn(-c2cccc(N)c2)c(=O)c2cnc(Nc3ccc(N4CCNCC4)cc3)nc12	FGFR3 (Homo sapiens, UniProt P22607, K650E)	enzyme activity, inhibitor	–	–	> 10 µM
COc1cccc(-c2ccc(COCCCCCN3C[C@H](O)[C@@H](O)[C@H](O)[C@H]3CO)cc2)c1	GBA1 R534H	inhibitor, 4MU-β-D-glucopyranoside	–	added: 4MU-β-D-glucopyranoside	2.5 µM
CCN(CC)CC(=O)Nc1cccc(-n2cc(-c3ccc4ccc(-c5cn(-c6cccc(NC(=O)CN(CC)CC)c6)nn5)cc4c3)nn2)c1	STK17B (Homo sapiens, UniProt O94768)	enzyme activity, inhibitor	–	–	> 10 µM
O=C1CCC(N2C(=O)c3ccc(N4CCC(C(=O)N5CCC(CCN6CCC(CNC(=O)c7cccc(-c8noc(C(F)(F)F)n8)c7)(c7nc(-c8ccccc8)cs7)CC6)CC5)CC4)cc3C2=O)C(=O)N1 (stereo not shown)	HDAC9	enzyme activity, inhibitor	–	–	0.18 µM
COc1cc(/C=C/C(=O)c2cccc(N3CCOCC3)c2)cc(OC)c1OC	P4HB	enzyme activity, inhibitor	–	–	> 100 µM
C[C@@H](O)[C@@H]1NC(=O)[C@H](CCCCN)NC(=O)[C@@H](Cc2ccc(NC(N)=O)cc2)NC(=O)[C@H](Cc2ccc(O)cc2)NC(=O)[C@H](NC(=O)[C@H](Cc2ccc(Cl)cc2)NC(=O)CN2CCN(CC(=O)O)CCN(CC(=O)O)CCN(CC(=O)O)CC2)CSSC[C@@H](C(=O)N[C@@H](Cc2ccc3ccccc3c2)C(N)=O)NC1=O	SSTR1 (Homo sapiens, UniProt P30872)	ligand displacement, radioligand	–	–	> 1 µM
N#Cc1c(-c2ccco2)cc(-c2cccs2)[nH]c1=O	Protein FosB, ΔFosB isoform, with JunD (Fosb, Mus musculus, UniProt P13346)	ΔFosB/JunD binding to AP-1 DNA, inhibitor, fluorescence polarization	–	protein, full length 280 nM, no TCEP, added: 25 nM TMR-cdk5 oligonucleotide	~3 µM and 3.3 µM
CCCCc1nc2c([nH]1)[C@H](O)[C@@H](O)[C@H](O)[C@H]2O	GBA1 R534H	–	–	30 min preincubation, pH 5.2, added: 200 µM 2,4-dinitrophenyl-β-D-glucopyranoside	0.192 µM
CC(C)c1ccc(OS(=O)(=O)Oc2cncc(C(=O)NO)c2)cc1	HDAC6	enzyme activity, inhibitor, fluorescence	–	–	0.063 µM
OC[C@@H]1[C@@H](O)[C@H](O)[C@@H](O)CN1CCCC/C=C\C12CC3CC(CC(C3)C1)C2	GBA1 R534H	inhibitor, 4MU-β-D-glucopyranoside	–	added: 4MU-β-D-glucopyranoside	0.5 µM
CC(C)(C)n1ncc2c(=O)n(Cc3cccc(F)c3)c(NCc3ccc(F)cn3)nc21	PDE10A (Homo sapiens, UniProt Q9Y233)	enzyme activity, inhibitor	–	–	> 10 µM

Excerpt of the above:
Structure (SMILES)	target	test	test system	setting	IC50
Cc1cc(NC2CCN(C)CC2)ccc1-c1cc2c(N3CCC[C@H](C(=O)NCc4ccc(OC(F)(F)F)cc4)C3)ncnc2[nH]1	CDK6	enzyme activity, inhibitor, mobility shift	–	–	> 8 µM
O=C(O)Cc1cc2c(cc1C(=O)c1ccccc1Br)OCO2	Gria1/Gria2	ion current, antagonist, patch clamp	–	–	4.57 µM
CC(C)=CCC/C(C)=C/CC/C(C)=C/COCCCCCN1C[C@H](O)[C@@H](O)[C@H](O)[C@@H]1CO	GBA1 R534H	inhibitor, 4MU-β-D-glucopyranoside	–	added: 4MU-β-D-glucopyranoside	50 µM
Cc1cc(C)nc(NC(=S)N2CCN(c3ccc(C(F)(F)F)cn3)CC2)c1	Glycerol-3-phosphate dehydrogenase 1-like protein (GPD1L, Homo sapiens, UniProt Q8N335)	enzyme activity	–	counterscreen	> 100 µM
CCn1nc(Cl)c2c1-c1cnc(N)c(c1)O[C@H](C)c1cc(F)ccc1-c1nn(C)cc1C2	PLK4 (Homo sapiens, UniProt O00444)	enzyme activity, inhibitor, radiometric	–	–	0.565 µM
